Experimental data from different studies.
Each numbered part is a random draw from the data of one study; scales do not carry over between parts. Substitutions count along the parent as printed.

Sample 1 — technique: competition protein-binding microarray; molecule type: double-stranded DNA, one strand shown; medium: in vitro; tested at: 2 µM; with: Pho4 competitor, 0.05 µM; reading: higher = stronger binding; shared flanks, not repeated: … GTCTTGATTCGCTTGACGCTGCTG
Target: Centromere-binding protein 1, full length, His-tagged (CBF1, Saccharomyces cerevisiae, UniProt P17106, residues 1-351)
Sequence of UniProt P17106 (whole entry, looked up): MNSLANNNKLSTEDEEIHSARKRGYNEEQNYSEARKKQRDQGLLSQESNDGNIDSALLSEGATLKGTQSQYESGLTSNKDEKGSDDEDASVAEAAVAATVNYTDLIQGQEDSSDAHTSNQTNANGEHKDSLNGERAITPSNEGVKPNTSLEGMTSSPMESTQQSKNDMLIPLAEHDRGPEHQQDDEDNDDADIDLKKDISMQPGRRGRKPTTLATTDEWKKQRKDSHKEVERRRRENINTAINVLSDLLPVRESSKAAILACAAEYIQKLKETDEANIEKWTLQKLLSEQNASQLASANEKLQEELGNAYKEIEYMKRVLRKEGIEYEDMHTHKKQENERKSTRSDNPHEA
Setting: whole 60-bp probe, lowest competitor level
Strand	fluorescence intensity [a.u.]
CACCGTCCTATTCGTCACGCTCCAGGCAGAGACATG	161
TAAGGAAAAACTCACCACGTTCTTCTGAACATGTTC	96.7
TGCGCAACAACTTGTCACTACACTTTATGTCTAGAA	77.9
CTTTCCCGATCTTGAGCTGTGGGTGTAGCACATTTG	58.9
TTTTCTTTCGATTAGCACGCACACACATCACATAGA	98.2
CTAACGAAGGTTTGGGCAGTGGGTGACAAGCCAAGT	70.2
TTGCGGACGGACCATCACGCAAGTTTTTTAACGCGA	74
TTACCCAGCGATCCGCCCGTGAGGTGATGCGCAAAA	64.5
CTGCCAGTAAAGCAGAATGTGCGGGTCTTGTATCCA	59.8
CTTATCCGAAGTTGAAATGTGACGGCTGCAATGGAT	74.3
AAAGCGGTAATTTGTTTTGTGGGTGCAGATATCTAT	83
AGTAAAAGCCACCTTTCCGTGGGTAATCCGCTGAAA	58.7
CTTTCCCGATCTTTTCACGTGTCGTTAGCACATTTG	919
CGTTCTTGGGGACACCGCGTGCGATGCTCAGGATCG	63.7
ATCCCATTGGCAAATCACCTGTTCCGGCTGCTTGAT	188
AATGATGTGCTTGTCATCGTGGGTAACTTCACCAGC	76
AATACTTCTGAGTTCTACGTGGTGAAAAAATATTTT	95.6
TTGGGGCAGATACTTCGTGTGACAGTGGCCAATTCA	62.5
TTGCAATACACTCGGCACGCACTTTATCACTGGGCT	78.7

Sample 2 — technique: DHFR PCA, deep sequencing; medium: yeast; with: (+)-ABA 0 µM; relative to: wild-type fitted maximum; reading: higher = stronger binding
Target: ABI1, truncated, D143A, DHFR fusion (Arabidopsis thaliana)
Setting: methotrexate growth selection, single substitutions
Starting sequence: PYL1, truncated, DHFR fusion (Arabidopsis thaliana); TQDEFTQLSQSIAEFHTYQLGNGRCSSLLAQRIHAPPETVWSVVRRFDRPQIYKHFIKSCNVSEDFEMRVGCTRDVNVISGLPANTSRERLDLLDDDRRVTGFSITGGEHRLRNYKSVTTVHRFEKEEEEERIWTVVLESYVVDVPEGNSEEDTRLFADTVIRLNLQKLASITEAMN
Substitution	relative binding score [%]
Q19I	8.87
L112G	-3.49
E125M	23
I57P	-4.07
D95N	2.49
R45K	2.69
N165Y	0.388
E130T	30.8
G107F	-4.91
R88F	6.89
D48N	7.06
R69D	-4.85
R74N	22
I105D	0.0333
R88V	32.2
F157H	11.8
E128C	28.1
I12G	1.07
L112A	-4.54
T17Q	8.41
T17G	-1.2
W41P	-0.42

Sample 3 — technique: protein-binding microarray; molecule type: double-stranded DNA, one strand shown; medium: in vitro; tested at: not given; reading: higher = stronger binding
Target: Protein C-ets-1 (ETS1, Homo sapiens, UniProt P14921, residues 1-441, full length assumed)
Setting: k-mer, scored over probes, only values ≥0.25
Construct (chain): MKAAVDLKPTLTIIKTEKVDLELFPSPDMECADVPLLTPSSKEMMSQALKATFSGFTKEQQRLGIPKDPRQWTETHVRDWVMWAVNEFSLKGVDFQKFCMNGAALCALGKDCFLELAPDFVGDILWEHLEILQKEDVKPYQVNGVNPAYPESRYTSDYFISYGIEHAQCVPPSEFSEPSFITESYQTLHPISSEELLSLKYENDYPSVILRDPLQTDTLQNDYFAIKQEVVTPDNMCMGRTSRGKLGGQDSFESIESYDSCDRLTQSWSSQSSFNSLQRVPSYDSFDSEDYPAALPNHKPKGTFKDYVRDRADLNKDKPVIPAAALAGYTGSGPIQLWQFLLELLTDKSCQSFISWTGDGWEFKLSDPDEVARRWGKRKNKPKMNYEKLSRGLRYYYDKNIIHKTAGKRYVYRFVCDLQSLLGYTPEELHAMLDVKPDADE
Strand	E-score
ACGTCCGG	0.479
TAAGCGGA	0.343
ACGCTTCC	0.41
CTACAGGA	0.362
ACAGGAAC	0.354
ACATGTCC	0.253
TCACAGGA	0.28
ATGGCGGA	0.309
CAGGACAC	0.257
ATAGGATG	0.339
AGGGGAAA	0.29
AACGGAAG	0.468
CTCCAGGA	0.256
ATTCCGGA	0.425
ACCATCCT	0.28
CCATCCGC	0.432
TCCGCTCA	0.37
ACCTCCGC	0.256
AGGAAGCG	0.454
ACCGGTAT	0.288

Sample 4 — target: UBE2S UBC core domain (UniProt Q16763); technique: yeast two-hybrid; medium: yeast; setting: mostly zero background; relative to: not given; reading: higher = stronger interaction
B1: ARIH1 RING domain (UniProt Q9Y4X5); chain NTRSSAQDMPCQICYLNYPNSYFTGLECGHKFCMQCWSEYLTTKIMEEGMGQTISCPAHGCDILVDDNTVM
B2: RNF10 RING domain (UniProt Q8N5U6); chain VRICSHEVPSCPICLYPPTAAKITRCGHIFCWACILHYLSLSEKTWSKCPICYSSVHKKDLKS
B3: TRIM47 RING domain (UniProt Q96LD4); chain MDGSGPFSCPICLEPLREPVTLPCGHNFCLACLGALWPHRGASGAGGPGGAARCPLCQEPFPDGLQLR
B4: PJA2 RING domain (UniProt O43164); chain DHTAIGQEQCCPICCSEYIKDDIATELPCHHFFHKPCVSIWLQKSGTCPVCRRHFPPAVIEA
B5: CBLL1 RING domain (UniProt Q75N03); chain GEKDDTPVHFCDKCGLPIKIYGRMIPCKHVFCYDCAILHEKKGDKMCPGCSDPVQRIEQCT
Residues (chain): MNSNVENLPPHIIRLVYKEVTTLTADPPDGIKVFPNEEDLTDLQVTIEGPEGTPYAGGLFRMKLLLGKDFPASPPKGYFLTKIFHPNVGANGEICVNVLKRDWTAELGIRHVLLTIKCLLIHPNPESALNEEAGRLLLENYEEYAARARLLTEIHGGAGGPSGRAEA
Molecule	lacZ reporter activity
B1 (ARIH1 RING domain)	0
B2 (RNF10 RING domain)	0
MEEMEEELKCPVCGSFYREPIILPCSHNLCQACARNILVQTPESESPQSHRAAGSGVSDY (TRIM9 RING domain (UniProt Q9C026))	0
B3 (TRIM47 RING domain)	0
B4 (PJA2 RING domain)	0
B5 (CBLL1 RING domain)	0
VPADASPDSKCPICLDRFDNVSYLDRCLHKFCFRCVQEWSKNKAECPLCKQPFDSIFHSV (TOPORS RING domain (UniProt Q9NS56))	0

Other studies, line by line
Molecule	organism	assay	test system	setting	scale	quantity	result
LLKRLQDVVSERA	Saccharomyces cerevisiae	binding, competitive growth deep sequencing	peptide, cyclin E1-Cln2 fusion strain	concentration not given, peptide library 2	direction not given	growth enrichment score	0.642

Some of these lines once more (sample 2):
Substitution	relative binding score [%]
R45K	2.69
R88F	6.89
Q19I	8.87
R74N	22
R88V	32.2
D95N	2.49
W41P	-0.42
D48N	7.06
T17Q	8.41
T17G	-1.2
L112G	-3.49
